Assay results gathered from unrelated publications.
Numbered parts are unrelated; each lists some results of a single study.
UniProt O15294, sequence (whole entry, looked up): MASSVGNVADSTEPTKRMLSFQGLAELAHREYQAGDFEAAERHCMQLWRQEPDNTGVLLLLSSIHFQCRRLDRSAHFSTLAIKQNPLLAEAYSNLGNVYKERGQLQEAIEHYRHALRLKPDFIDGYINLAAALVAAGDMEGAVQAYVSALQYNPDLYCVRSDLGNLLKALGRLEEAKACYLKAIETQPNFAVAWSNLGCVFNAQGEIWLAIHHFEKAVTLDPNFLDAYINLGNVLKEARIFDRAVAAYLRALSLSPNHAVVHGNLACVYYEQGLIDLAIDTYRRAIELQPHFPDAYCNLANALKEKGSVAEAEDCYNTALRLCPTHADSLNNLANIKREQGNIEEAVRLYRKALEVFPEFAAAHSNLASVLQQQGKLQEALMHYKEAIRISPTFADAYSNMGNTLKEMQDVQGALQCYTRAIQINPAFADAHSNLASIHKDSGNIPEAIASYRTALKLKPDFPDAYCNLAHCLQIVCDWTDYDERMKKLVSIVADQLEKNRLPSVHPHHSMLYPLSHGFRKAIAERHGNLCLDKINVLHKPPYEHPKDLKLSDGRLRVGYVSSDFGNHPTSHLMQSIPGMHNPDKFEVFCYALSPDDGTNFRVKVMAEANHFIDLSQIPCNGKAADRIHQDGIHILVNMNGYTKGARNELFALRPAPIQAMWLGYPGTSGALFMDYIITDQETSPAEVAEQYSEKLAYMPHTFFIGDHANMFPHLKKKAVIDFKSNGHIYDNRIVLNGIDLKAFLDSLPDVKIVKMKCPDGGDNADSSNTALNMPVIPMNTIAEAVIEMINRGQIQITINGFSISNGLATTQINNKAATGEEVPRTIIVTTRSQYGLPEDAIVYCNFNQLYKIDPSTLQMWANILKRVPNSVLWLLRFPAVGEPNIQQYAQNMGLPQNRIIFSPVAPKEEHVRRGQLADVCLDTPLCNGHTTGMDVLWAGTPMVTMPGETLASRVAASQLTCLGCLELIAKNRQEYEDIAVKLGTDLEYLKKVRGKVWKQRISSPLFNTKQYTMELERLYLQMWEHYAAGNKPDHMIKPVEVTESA

Sample 1
Target: RNA binding protein fox-1 homolog 2, RRM domain, GST-SBP tag (RBFOX2, Homo sapiens, UniProt O43251-10, residues 100-194)
Method: RNA Bind-n-Seq
Form: RNA
Sample: in vitro
Concentration: 365 nM
Notes: natural RNA segment, single round, ends assumed
Reference: no-protein control
Direction: higher = stronger binding
Constant ends, left off below: GGGAGUUCUACAGUCCGACGAUC … UGGAAUUCUCGGGUGCCAA
Under “RBNS enrichment (R)”, `CAAGCCCAGCCCACCUUAGCAUGUAUCACUCUGUGGAGAAUAAAGCACCCUGUGUACACAGCCAGAAGCCACACCGCCUGUGCUCCUGAAUCCUGGUCCAGCCCUCCCCA` is recorded as 1.56.
For `GGCCUCCUCGGGUGCCUGUGGUGGUCCACCUGGUGCACAGACAAACACCCAAUACACACAAAACAAAAGUAACUCAAGAAUAGCCUGGGCUACAUAGCAAGAGCCUGUCU`, “RBNS enrichment (R)” read 0.518.
For `UAACACAGGGUAGGAAGAAGUGGCACAGUGUAUUGCAUUAUAUACAUUUAUCAUUGAUUUACCUAAUGUUACCUUGUAGAUUAAACACUAUUAAGUGGUAAUACUUGAAA`, “RBNS enrichment (R)” read 0.561.
`UGUGGUUGACAAUUCUGUAUUGACUAAAGGCAAUAUUGUCACCUGUCUCAUUAAAAAUUAGUUUCCAGUUAGGCAGAUGAAUAACACUAUUAAAAAUGCACCCAGUUUUG` — result for “RBNS enrichment (R)”: 0.47.
For `CACAUUGAUCCCAUUUCUGGAACAUUUUUCCUAUUUCCAGAGUUACAUAUGUUCUUUUGUCAUUACCCAAUUUAACCUCCCUUUCUCUGAUAUGCCUUGUAGCCAAAGUA`, “RBNS enrichment (R)” read 0.919.
`AAGUGUAUUUGCUAUUGUUUUCAAAGUGCUGACAAAGUUUAUAUUUGUAAUGCCAGCAUUCCUCUUCCCCAUUUCCAGCUGUCACUCCUUCAUUAAACUGCUGAGUCAUU`: “RBNS enrichment (R)” 0.836.
Under “RBNS enrichment (R)”, `UUGCAGAUUUCAGUCGUCGUGUUACUUGUGCACAAACAGAAGCUGGGUCUUACCCGCAGCACGAGUGUCUCGGGCUGCCCGGAGUCGCCCGGGAGCAGGUGCUGCAGCCA` is recorded as 0.599.
For `AUGGGCUGCCCAGGGCUGGAGGGGACGCUGUUCCUCCCGCCGCCACUGCCCAACCUUUCCUGAUAAUCGUGGCAUGCGCCCUUUCCUCUUCCCUGCCCCACCCCCUGGCC`, “RBNS enrichment (R)” read 0.864.

Sample 2
Target: Myc proto-oncogene protein, bHLH-zipper, MAX partner unstated (MYC, Homo sapiens, UniProt P01106, residues 368-449)
UniProt P01106, sequence (368-449, looked up): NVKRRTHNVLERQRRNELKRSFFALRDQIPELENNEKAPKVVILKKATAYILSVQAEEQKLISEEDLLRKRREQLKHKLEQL
Method: protein-binding microarray
Form: double-stranded DNA, one strand shown
Sample: in vitro
Concentration: not given
Notes: k-mer, scored over probes, only values ≥0.25
Direction: higher = stronger binding
The E-score of `AAACCACG` is reported as 0.411.
For `GCAGGCGC`, the E-score was 0.272.
`ACGCGGGG` has an E-score of 0.381.
The E-score of `ATGGCGGG` is reported as 0.252.
The E-score of `AGCGCGCG` is reported as 0.282.
The E-score of `CAGCACGC` is reported as 0.394.
`CACGTGGA` has an E-score of 0.496.
`TGCGTCCA` gave an E-score of 0.286.

Mixed results
The GFP-positive cells of O=C1O[C@H](CO)[C@@H](O)[C@H](O)[C@H]1O is reported as 76.6% (HEK-293T; pseudovirus infection, FDA-approved drug library counter-screen; VSV pseudotyped with VSV-G; 10 µM, 16 h; reference: vehicle-treated).
`HLTMGHSRTDDSRNH`: “enrichment fold change” 5.98 (OGT (Homo sapiens, UniProt O15294); binding, phage display NGS; peptide; concentration not given, panning round 2; reference: input library).

Excerpt of the above (sample 2):
The E-score of `CAGCACGC` is reported as 0.394.
`CACGTGGA` has an E-score of 0.496.
